Assay results pooled from the literature.
Every numbered part comes from another study and shows a few of its results, in no order. Values joined by “and” are separate records of one study, mostly repeats; a detail may differ.
Chain of UniProt Q9Y2I7 (whole entry, looked up): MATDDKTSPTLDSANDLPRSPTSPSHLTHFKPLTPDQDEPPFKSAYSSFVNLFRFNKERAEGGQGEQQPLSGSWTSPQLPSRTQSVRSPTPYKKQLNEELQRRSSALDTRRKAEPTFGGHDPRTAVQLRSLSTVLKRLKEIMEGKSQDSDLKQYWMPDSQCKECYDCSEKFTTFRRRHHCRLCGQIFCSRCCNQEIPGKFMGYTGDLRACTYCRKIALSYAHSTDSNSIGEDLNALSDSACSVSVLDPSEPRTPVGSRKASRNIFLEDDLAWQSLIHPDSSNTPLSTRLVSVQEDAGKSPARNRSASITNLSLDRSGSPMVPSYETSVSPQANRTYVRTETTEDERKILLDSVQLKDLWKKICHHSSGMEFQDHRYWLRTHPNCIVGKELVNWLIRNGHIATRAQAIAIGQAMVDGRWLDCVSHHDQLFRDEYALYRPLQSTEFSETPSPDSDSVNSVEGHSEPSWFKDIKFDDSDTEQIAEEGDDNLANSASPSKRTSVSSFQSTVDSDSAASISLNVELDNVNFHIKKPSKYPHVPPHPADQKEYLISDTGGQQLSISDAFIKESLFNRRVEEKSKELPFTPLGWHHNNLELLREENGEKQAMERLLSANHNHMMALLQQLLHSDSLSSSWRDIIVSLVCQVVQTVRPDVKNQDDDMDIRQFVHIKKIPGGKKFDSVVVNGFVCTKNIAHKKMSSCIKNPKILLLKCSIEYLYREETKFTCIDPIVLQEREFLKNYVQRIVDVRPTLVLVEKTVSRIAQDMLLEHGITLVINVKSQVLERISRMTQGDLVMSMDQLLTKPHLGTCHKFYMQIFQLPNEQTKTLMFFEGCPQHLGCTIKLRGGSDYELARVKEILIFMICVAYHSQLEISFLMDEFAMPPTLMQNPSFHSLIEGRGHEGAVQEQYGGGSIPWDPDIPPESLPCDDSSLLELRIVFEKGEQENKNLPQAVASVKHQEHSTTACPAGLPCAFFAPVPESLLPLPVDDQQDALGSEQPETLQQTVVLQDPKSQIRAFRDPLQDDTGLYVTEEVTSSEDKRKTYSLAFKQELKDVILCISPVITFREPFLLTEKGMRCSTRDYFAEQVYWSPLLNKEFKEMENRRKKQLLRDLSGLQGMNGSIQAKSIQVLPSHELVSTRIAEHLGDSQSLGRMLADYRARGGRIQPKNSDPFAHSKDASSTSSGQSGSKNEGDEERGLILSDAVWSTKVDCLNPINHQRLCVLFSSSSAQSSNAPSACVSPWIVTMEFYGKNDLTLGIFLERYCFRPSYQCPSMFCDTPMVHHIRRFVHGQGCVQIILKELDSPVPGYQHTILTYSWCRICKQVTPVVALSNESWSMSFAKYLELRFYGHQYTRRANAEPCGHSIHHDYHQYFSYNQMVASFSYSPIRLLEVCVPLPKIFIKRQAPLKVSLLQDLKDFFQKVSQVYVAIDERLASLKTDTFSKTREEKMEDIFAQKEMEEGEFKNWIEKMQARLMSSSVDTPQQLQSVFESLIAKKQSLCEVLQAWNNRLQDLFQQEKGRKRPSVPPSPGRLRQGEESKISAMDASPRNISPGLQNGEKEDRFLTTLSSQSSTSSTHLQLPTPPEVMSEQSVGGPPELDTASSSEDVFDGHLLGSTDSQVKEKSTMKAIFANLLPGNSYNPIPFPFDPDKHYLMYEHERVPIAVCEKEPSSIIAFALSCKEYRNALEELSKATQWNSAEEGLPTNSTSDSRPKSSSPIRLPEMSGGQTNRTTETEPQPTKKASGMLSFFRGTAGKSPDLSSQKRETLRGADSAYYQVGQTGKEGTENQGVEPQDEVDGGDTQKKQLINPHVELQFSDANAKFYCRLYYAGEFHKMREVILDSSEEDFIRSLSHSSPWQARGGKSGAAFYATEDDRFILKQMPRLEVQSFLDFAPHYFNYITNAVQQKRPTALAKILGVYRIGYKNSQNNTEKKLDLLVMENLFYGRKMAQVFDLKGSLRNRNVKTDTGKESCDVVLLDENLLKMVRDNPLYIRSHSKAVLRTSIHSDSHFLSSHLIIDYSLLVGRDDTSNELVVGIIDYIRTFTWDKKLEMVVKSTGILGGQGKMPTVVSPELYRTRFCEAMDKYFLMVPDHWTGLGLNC
Chain of UniProt Q15759 (whole entry, looked up): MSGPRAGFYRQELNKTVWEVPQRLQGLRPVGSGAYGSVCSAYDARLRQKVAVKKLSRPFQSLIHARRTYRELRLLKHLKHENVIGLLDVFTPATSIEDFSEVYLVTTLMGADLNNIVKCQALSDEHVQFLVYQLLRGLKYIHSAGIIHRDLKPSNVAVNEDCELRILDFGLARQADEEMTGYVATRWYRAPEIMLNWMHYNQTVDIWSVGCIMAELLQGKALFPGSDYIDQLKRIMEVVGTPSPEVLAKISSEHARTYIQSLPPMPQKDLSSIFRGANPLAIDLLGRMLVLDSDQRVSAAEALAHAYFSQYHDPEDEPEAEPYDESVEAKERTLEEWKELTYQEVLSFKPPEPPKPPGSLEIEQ
Chain of UniProt P30530 (whole entry, looked up): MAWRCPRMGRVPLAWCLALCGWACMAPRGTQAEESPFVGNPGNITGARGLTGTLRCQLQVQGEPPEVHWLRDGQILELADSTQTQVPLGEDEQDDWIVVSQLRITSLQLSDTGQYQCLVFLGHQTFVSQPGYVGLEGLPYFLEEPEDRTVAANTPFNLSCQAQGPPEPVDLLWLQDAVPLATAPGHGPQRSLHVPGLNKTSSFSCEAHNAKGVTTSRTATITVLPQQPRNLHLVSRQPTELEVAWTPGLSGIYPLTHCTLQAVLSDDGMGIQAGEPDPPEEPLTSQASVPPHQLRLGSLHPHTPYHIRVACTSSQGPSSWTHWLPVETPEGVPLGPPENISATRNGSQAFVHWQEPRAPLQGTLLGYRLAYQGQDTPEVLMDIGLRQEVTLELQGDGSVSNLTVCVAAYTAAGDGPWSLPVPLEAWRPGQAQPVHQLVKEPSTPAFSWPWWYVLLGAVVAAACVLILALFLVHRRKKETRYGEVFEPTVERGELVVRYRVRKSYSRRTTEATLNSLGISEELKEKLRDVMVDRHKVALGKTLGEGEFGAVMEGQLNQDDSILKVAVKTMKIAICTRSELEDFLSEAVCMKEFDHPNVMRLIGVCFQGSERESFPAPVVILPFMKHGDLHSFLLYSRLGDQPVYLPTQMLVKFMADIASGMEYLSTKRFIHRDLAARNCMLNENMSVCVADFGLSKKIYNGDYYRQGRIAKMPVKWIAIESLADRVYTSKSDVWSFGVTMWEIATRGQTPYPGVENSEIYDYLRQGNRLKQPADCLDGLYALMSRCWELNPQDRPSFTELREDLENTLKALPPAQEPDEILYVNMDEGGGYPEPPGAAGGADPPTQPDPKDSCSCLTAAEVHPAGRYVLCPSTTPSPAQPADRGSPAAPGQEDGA
Chain of UniProt Q96PF2 (whole entry, looked up): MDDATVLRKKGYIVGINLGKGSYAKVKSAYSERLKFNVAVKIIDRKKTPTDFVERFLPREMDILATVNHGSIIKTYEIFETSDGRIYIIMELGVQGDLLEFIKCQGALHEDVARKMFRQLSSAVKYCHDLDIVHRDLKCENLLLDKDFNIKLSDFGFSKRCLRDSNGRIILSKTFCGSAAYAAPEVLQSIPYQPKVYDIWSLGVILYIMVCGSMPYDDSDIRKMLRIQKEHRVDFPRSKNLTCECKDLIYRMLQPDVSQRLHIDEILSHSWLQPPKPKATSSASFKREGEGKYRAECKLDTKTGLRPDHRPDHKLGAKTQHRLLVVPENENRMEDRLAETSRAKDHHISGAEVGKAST
Chain of UniProt Q9UEE5 (whole entry, looked up): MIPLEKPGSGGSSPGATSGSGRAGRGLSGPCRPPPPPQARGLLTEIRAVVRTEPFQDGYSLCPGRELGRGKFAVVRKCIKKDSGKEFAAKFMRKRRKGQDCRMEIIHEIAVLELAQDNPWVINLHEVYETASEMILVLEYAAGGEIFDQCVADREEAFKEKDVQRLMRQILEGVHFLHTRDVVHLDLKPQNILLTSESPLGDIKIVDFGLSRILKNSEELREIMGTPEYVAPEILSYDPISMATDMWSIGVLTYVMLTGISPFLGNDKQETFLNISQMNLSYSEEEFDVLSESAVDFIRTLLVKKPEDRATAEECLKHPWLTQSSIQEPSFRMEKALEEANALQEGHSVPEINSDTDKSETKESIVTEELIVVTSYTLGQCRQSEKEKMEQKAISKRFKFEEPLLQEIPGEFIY
Chain of UniProt O43293 (whole entry, looked up): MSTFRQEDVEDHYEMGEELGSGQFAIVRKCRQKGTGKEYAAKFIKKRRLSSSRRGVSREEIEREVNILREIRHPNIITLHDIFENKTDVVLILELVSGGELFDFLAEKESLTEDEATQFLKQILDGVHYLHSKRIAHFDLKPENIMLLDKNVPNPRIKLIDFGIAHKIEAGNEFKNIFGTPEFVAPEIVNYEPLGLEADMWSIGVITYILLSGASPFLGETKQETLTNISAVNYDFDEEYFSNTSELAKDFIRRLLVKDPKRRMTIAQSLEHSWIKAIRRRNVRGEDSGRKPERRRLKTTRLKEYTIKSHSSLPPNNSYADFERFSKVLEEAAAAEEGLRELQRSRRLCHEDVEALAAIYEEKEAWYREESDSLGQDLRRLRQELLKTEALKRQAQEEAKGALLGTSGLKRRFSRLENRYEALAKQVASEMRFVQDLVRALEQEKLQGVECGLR
Chain of UniProt Q9H3Y6 (whole entry, looked up): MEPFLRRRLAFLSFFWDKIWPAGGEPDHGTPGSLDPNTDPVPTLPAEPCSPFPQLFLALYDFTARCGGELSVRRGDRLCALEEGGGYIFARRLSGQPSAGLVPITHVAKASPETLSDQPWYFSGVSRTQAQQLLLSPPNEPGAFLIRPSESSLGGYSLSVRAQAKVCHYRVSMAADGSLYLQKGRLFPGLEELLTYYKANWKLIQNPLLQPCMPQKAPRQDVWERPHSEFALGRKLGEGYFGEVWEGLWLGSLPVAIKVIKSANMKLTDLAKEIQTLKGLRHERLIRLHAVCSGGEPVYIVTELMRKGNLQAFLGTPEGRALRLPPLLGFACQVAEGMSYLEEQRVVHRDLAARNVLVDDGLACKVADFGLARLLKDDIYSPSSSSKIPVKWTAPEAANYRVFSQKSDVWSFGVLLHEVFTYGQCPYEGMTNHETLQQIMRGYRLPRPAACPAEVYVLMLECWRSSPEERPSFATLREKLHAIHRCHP

Study 1
SMILES: CC(C)C[C@@H]1NC(=O)[C@@H](N(C)C(=O)[C@H](CC2CCC2)NC(=O)[C@@H]2C[C@@H](F)CN2C(=O)C2(C(F)(F)F)CC(F)(F)C2)CCCCNC(=O)C2(CC2)NC(=O)[C@H](Cc2cc(Cl)ccc2Cl)N(C)C1=O
HCC4006; Vi-Cell counting; 2 µM, 6 days; reference: DMSO — cell count: 0.0657 and 0.0894 and 0.125.
For NCI-H446; Vi-Cell counting; 2 nM, 3 days, added: Mps1 inhibitor 3 nM; reference: DMSO: cell count read 0.853 and 0.921.
NCI-H446; Vi-Cell counting; 60 nM, 3 days, added: Mps1 inhibitor 3 nM; reference: DMSO — cell count: 0.641 and 0.632.
For Jurkat, doxycycline-inducible E2F1; 200 nM, 6 days, doxycycline added; reference: DMSO: cell count read 0.333 and 0.229 and 0.261.
For Jurkat, doxycycline-inducible E2F1; 600 nM, 6 days, doxycycline added; reference: DMSO: cell count read 0.174 and 0.258 and 0.168.
It gave 0.903 and 1.03 for cell count (NCI-H1299; Vi-Cell counting; 20 nM, 6 days; reference: DMSO).
It gave 0.0845 and 0.0431 and 0.0717 for cell count (NCI-H446 sgCtrl; dose-response; 250 nM, 6 d; reference: DMSO-treated).
It gave 0.88 and 0.895 and 0.924 for cell count (MDA-MB-231, doxycycline-inducible E2F1; 20 nM, 6 days, no doxycycline; reference: DMSO).
MDA-MB-231, doxycycline-inducible E2F1; 60 nM, 6 days, no doxycycline; reference: DMSO — cell count: 0.743 and 0.84 and 0.8.

Study 2 — observed: enzyme activity; mode: inhibitor; concentration: 0.5 µM; reference: control
Structure (SMILES): Cc1nc(Nc2ncc(C(=O)Nc3c(C)cccc3Cl)s2)cc(N2CCN(CCO)CC2)n1
PHKG1 (Homo sapiens, UniProt Q16816) — remaining activity: 94.3%.
It gave 114% for remaining activity (PRKACG (Homo sapiens, UniProt P22612)).
For WNK3 (Homo sapiens, UniProt Q9BYP7): remaining activity read 88.1%.
HIPK4 (Homo sapiens, UniProt Q8NE63) — remaining activity: 98.4%.
For DYRK3 (Homo sapiens, UniProt O43781): remaining activity read 109%.
The remaining activity was 97.1% (HIPK2 (Homo sapiens, UniProt Q9H2X6)).
It gave 61.4% for remaining activity (AXL (Homo sapiens, UniProt P30530)).
BLK (Homo sapiens, UniProt P51451) — remaining activity: 3.04%.
For Cyclin-dependent kinase 1, with cyclin B (CDK1, Homo sapiens, UniProt P06493): remaining activity read 93.9%.
SRMS (Homo sapiens, UniProt Q9H3Y6) — remaining activity: 17%.
The remaining activity was 101% (RPS6KA5 (Homo sapiens, UniProt O75582)).
For RPS6KA6 (Homo sapiens, UniProt Q9UK32): remaining activity read 101%.
The remaining activity was 97.3% (CAMK2B (Homo sapiens, UniProt Q13554)).
The remaining activity was 107% (STK17A (Homo sapiens, UniProt Q9UEE5)).
For MAP4K4 (Homo sapiens, UniProt O95819): remaining activity read 49.2%.
It gave 101% for remaining activity (MAPKAPK3 (Homo sapiens, UniProt Q16644)).
For Cyclin-dependent kinase 4, with cyclin D3 (CDK4, Homo sapiens, UniProt P11802): remaining activity read 99.1%.
For Cyclin-dependent kinase 6, with cyclin D3 (CDK6, Homo sapiens, UniProt Q00534): remaining activity read 103%.
STK16 (Homo sapiens, UniProt O75716) — remaining activity: 96.9%.
For PDPK1 (Homo sapiens, UniProt O15530): remaining activity read 94.1%.
It gave 4.8% for remaining activity (EPHB1 (Homo sapiens, UniProt P54762)).
TSSK2 (Homo sapiens, UniProt Q96PF2) — remaining activity: 93.9%.

Study 3 — observed: cell-free assay; technique: competition with immobilised ligand; concentration: 1 µM
Compound: CCCOc1ccc([C@H]2[C@H](C(=O)O)[C@@H](c3ccc4c(c3)OCO4)CN2CC(=O)Nc2c(CC)cccc2CC)cc1
For Tyrosine-protein kinase JAK1, JH1 (JAK1, Homo sapiens, UniProt P23458): remaining binding read 95%.
MAPK11 (Homo sapiens, UniProt Q15759) — remaining binding: 95%.
The remaining binding was 74% (Ribosomal protein S6 kinase alpha-1, C-terminal kinase domain (RPS6KA1, Homo sapiens, UniProt Q15418)).
The remaining binding was 100% (ABL2 (Homo sapiens, UniProt P42684)).
MAP4K2 (Homo sapiens, UniProt Q12851) — remaining binding: 79%.
For SGK2 (Homo sapiens, UniProt Q9HBY8): remaining binding read 54%.
The remaining binding was 58% (STK39 (Homo sapiens, UniProt Q9UEW8)).
For PRKD1 (Homo sapiens, UniProt Q15139): remaining binding read 94%.
PIKFYVE (Homo sapiens, UniProt Q9Y2I7) — remaining binding: 86%.
It gave 95% for remaining binding (EGFR (Homo sapiens, UniProt P00533, G719C)).
NUAK1 (Homo sapiens, UniProt O60285) — remaining binding: 83%.
For DAPK3 (Homo sapiens, UniProt O43293): remaining binding read 89%.
FLT3 (Homo sapiens, UniProt P36888) — remaining binding: 87%.
MAP3K4 (Homo sapiens, UniProt Q9Y6R4) — remaining binding: 88%.
It gave 87% for remaining binding (KIT (Homo sapiens, UniProt P10721, V559D)).

Single results of other studies
With `C[C@@H]1O[C@@H](OC[C@H]2O[C@@H](Oc3c(-c4ccc(O)cc4)oc4cc(O)cc(O)c4c3=O)[C@H](O)[C@@H](O)[C@@H]2O)[C@H](O)[C@H](O)[C@H]1O` the inhibition was -28% (Calcium/calmodulin-dependent protein kinase type II subunit alpha (CAMK2A, Homo sapiens, UniProt Q9UQM7); enzyme activity, inhibitor; 10 µM).

For quick reference, copied from above (study 3):
NUAK1 (Homo sapiens, UniProt O60285) — remaining binding: 83%.
For DAPK3 (Homo sapiens, UniProt O43293): remaining binding read 89%.
FLT3 (Homo sapiens, UniProt P36888) — remaining binding: 87%.
MAP3K4 (Homo sapiens, UniProt Q9Y6R4) — remaining binding: 88%.
It gave 87% for remaining binding (KIT (Homo sapiens, UniProt P10721, V559D)).
